Experimental data from different studies.
Each numbered part is a random draw from the data of one study; scales do not carry over between parts.

Block 1 — method: RNA Bind-n-Seq; form: RNA; sample: in vitro; tested at: 365 nM; relative to: no-protein control; direction: higher = stronger binding
Target: RNA binding protein fox-1 homolog 2, RRM domain, GST-SBP tag (RBFOX2, Homo sapiens, UniProt O43251-10, residues 100-194)
Setting: natural RNA segment, single round, ends assumed
Shared flanks, not repeated: GGGAGUUCUACAGUCCGACGAUC … UGGAAUUCUCGGGUGCCAA
Target sequence (chain): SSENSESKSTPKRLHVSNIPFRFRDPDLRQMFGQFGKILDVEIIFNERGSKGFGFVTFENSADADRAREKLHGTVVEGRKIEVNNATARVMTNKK
Sequence	RBNS enrichment (R)
AAUCAUAGGGGCAGUUUCUCCCAUACUGUUCUGGUGGUAGUGAAUAAGUCUCACGAGAUCUGAUGGUUUAAUAAGGGGUUUCCCCUUUUGCUUGGCUCUCAUUCUCUCUU	0.26
CUGGCAUAUCACCCCGCACUGUGGGGCCAGGCACCACUAGCCUGGCUCAAAUAUUCCCCAGGGAGACUGCUGUGUGCUGCCCGCCUGCCUGCUGGCUCUCCCCCAGCCCC	0.532
CUCAGGCCCGCCUCCAACCCCGAGACCUCAGCUGUGCCUUAUCACAGAGAUGGCGCUGCAGGGCCCAGAUGUGUGACUGGGCAUGUUUCCAGGAAAGAGGCCAUCUCUUG	1.78
ACAAGACCAGGGAGAAUCCACCCAUGGGCGCCCACCAGGUUCUUAUGGAUGCAAGCAGGAGAAGCUCAACACCCUGCCUCUUGCCAAGACAAGGAAGCCUCACCUGGCUU	2.49
AAGGCCUCCCCAUCUGGGAAAUAGAACUGGAUAUUUUGCCUCAUUCACUUGUACUGUAAUAGUGUAUAUAACUUAGUUGGUAUUUCACUAUUUAAUUUUUAAGAAGCCUA	0.458

Block 2 — method: RNA Bind-n-Seq; form: RNA; sample: in vitro; tested at: 200 nM; setting: whole 134-nt RNA, ends assumed; together with: 150 mM KCl; relative to: input library; direction: higher = stronger binding
Target: Fragile X messenger ribonucleoprotein 1, C-terminal low-complexity region (Fmr1, Mus musculus, UniProt P35922)
Shared flanks, not repeated: GGGAGUUCUACAGUCCGACGAUC … UGGAAUUCUCGGGUGUCAAGG
Sequence	log2 enrichment
CUCAAGUCCUGUGCUACACAUCGUAUGUACCGAAUCGGUUUUUGGUGGUUUGGAAAGUAUUAUGUUACGCCGUUCGGAUCUGCACUUCCA	-0.369
GUCCUGUGCUACACAUCGUAUGUACCGAAUCGGGGCCCCGGGGCCCCGGGGCCCCGGGAAAGUAUUAUGUUACGCCGUUCGGAUCUGCAC	-0.559
UCAAGGGUUAUACACGGAAAGCCGCUGCGCUGGAAGCGAUGAAGGACUACACCAAAGCCAUGGAUGUGUACCAGAAGGCGCUAGACCUGG	-0.441
CAAGUCCUGUGCUACACAUCGUAUGUACCGAAUCGGGGUUUUGGUUUUGGUUUUGGAAAGUAUUAUGUUACGCCGUUCGGAUCUGCACUU	-0.513
AAGUCCUGUGCUACACAUCGUAUGUACCGAAUCGGAAAAGGGGAAAAGGAAAAGGGGAAAGUAUUAUGUUACGCCGUUCGGAUCUGCACU	-0.118
UCCUGUGCUACACAUCGUAUGUACCGAAUCGGGGAAAAAAAGGGGUGGGGAAAAAGGGGAAAGUAUUAUGUUACGCCGUUCGGAUCUGCA	0.645
UGGCCCUGGUGGCAUGCGGGGAGGAAGAGGUGGCCUCAUGGAUCGUGGUGGUCCCGGUGGAAUGUUCAGAGGUGGCCGUGGUGGAGGCAG	0.186

Block 3 — method: protein-binding microarray; form: double-stranded DNA, one strand shown; sample: in vitro; tested at: 250 nM; setting: 60-bp whole probe; together with: salmon DNA 0.4 mg/ml; relative to: random background probes; direction: higher = stronger binding
Target: Interferon regulatory factor 5, full length, phosphomimetic (IRF5, Homo sapiens, UniProt Q13568-2, residues 1-514, K96S/S451D/S453D/S456D/S462D)
Shared flanks, not repeated: GCCTAGCACT … GTGCTAGGTCTTGATTCGCTTGACGCTGCTG
Sequence	log fluorescence [z-score]
CATTTTTCCTAATTGAACT	0.584
CACATTTCTGTTTTTGACT	2.24
TAGTACTGCTTATCCTTTA	0.056
CATTTTTCTGCTTAGAACT	1.62
TCCAATTCTTTTTATGCTT	1.47

Mixed results
Substance	target	test	system	conditions	scale	measurement	value
PhoQ, residues 284 288 289 292 302 303 TNASYF	PhoP, residues 12 14 15 18 19 TTLRV (Escherichia coli, UniProt P23836)	Sort-seq, refers to: YFP reporter	E. coli	PhoQ-PhoP variant library, together with: 10 µM Mg2+	relative to: high Mg2+ state, higher = stronger signaling	fold induction	3.2

Excerpt of the above (block 2):
Sequence	log2 enrichment
GUCCUGUGCUACACAUCGUAUGUACCGAAUCGGGGCCCCGGGGCCCCGGGGCCCCGGGAAAGUAUUAUGUUACGCCGUUCGGAUCUGCAC	-0.559
